Published values of several laboratories.
A part holds a random share of what one study measured.
Sequence of UniProt Q16659 (whole entry, looked up): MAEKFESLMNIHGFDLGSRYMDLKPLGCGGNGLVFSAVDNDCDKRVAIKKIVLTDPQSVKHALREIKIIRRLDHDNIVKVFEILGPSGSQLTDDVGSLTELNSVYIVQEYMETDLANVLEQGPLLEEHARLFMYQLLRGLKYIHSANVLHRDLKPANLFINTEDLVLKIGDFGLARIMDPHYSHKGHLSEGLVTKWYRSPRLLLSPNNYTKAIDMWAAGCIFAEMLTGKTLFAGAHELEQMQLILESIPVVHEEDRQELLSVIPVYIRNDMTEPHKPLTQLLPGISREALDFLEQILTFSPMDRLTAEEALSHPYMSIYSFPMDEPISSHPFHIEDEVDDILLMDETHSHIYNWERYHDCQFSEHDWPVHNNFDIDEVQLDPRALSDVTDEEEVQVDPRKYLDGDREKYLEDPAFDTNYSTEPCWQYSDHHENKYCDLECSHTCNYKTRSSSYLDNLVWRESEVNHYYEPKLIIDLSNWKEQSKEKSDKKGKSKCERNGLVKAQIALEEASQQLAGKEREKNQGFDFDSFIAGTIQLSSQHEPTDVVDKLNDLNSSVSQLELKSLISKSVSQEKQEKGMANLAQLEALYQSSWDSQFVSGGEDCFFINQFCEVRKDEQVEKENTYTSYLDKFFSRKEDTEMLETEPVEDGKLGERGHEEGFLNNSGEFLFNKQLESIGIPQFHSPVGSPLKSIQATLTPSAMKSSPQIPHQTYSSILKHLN
Sequence of UniProt Q13523 (whole entry, looked up): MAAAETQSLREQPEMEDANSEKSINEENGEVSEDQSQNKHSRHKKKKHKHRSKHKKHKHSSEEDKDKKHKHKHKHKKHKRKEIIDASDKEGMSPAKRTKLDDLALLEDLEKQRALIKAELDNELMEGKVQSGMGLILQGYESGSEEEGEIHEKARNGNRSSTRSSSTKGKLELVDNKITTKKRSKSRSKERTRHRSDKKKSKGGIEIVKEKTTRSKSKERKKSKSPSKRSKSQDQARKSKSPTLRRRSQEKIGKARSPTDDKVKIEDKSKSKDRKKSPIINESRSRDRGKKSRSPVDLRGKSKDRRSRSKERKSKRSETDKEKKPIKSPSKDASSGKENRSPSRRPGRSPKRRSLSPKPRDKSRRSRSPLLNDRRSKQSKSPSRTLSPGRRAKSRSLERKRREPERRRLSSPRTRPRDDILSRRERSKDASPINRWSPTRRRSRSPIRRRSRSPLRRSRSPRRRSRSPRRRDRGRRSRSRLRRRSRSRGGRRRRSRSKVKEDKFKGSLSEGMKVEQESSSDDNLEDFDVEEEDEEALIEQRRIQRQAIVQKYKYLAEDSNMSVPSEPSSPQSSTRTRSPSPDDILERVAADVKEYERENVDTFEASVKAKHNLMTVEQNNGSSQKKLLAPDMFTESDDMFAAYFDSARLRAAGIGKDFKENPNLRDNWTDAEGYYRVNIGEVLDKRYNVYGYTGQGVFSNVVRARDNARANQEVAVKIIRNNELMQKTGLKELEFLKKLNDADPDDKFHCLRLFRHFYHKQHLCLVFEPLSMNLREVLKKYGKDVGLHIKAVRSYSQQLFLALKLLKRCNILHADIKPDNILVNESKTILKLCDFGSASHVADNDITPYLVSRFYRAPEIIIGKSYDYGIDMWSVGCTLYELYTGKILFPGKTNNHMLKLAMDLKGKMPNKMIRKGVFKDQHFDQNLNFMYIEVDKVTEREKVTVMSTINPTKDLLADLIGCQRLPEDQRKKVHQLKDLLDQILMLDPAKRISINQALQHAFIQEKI
Sequence of UniProt P31152 (whole entry, looked up): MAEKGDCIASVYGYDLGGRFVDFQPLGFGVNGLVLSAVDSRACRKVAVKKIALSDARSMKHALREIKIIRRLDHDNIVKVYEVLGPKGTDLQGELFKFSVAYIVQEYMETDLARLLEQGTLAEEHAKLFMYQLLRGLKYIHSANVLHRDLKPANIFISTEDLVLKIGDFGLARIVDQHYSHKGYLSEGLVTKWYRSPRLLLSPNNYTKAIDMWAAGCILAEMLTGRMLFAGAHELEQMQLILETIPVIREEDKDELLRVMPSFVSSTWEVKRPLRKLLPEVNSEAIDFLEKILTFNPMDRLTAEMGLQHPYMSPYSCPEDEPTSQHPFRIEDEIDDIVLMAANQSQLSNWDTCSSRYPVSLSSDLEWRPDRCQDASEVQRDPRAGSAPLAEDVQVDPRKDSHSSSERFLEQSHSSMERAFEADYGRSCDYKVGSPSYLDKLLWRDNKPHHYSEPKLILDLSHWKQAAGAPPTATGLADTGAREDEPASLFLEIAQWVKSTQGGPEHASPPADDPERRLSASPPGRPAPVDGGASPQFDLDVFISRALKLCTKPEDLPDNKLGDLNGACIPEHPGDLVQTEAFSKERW
Sequence of UniProt Q9Y2H1 (whole entry, looked up): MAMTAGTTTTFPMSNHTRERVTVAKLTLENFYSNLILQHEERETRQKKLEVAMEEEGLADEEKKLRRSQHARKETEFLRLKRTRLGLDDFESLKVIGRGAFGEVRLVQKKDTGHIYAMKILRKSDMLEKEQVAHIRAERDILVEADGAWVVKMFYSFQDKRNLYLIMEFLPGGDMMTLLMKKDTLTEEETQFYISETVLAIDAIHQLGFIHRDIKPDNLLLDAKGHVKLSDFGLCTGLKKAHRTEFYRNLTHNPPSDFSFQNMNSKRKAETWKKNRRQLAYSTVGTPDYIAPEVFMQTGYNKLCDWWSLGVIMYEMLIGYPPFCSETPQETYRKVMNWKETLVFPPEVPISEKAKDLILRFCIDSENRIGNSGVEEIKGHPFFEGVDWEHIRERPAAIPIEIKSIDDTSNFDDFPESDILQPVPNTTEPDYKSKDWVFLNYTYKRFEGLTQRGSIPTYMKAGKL
Sequence of UniProt Q6P2M8 (whole entry, looked up): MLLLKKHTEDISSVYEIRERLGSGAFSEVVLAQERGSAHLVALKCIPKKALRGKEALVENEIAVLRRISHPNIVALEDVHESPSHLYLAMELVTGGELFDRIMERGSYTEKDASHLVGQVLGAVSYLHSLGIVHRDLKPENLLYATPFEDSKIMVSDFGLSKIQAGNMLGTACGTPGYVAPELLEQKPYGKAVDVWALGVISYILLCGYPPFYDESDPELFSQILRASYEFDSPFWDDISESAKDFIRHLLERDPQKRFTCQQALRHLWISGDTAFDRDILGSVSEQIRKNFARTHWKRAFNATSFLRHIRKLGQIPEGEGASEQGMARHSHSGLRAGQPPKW
Sequence of UniProt Q9H4B4 (whole entry, looked up): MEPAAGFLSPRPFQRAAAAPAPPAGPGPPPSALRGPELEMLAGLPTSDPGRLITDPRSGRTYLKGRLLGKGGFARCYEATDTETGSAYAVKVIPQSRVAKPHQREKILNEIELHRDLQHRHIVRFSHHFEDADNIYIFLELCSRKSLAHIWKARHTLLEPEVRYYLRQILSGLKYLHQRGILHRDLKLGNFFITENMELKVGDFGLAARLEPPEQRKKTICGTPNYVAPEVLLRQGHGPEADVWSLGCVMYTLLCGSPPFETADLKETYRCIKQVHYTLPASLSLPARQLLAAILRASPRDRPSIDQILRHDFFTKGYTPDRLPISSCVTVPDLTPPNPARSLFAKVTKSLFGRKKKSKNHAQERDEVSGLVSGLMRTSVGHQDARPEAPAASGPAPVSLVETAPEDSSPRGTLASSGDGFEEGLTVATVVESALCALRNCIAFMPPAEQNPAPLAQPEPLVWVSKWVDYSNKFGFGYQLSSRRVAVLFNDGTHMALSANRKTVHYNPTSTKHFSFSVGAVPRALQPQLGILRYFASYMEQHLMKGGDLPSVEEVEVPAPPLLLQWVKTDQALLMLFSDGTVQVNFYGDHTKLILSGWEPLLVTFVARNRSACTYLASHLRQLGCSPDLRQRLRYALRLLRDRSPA
Sequence of UniProt P49840 (whole entry, looked up): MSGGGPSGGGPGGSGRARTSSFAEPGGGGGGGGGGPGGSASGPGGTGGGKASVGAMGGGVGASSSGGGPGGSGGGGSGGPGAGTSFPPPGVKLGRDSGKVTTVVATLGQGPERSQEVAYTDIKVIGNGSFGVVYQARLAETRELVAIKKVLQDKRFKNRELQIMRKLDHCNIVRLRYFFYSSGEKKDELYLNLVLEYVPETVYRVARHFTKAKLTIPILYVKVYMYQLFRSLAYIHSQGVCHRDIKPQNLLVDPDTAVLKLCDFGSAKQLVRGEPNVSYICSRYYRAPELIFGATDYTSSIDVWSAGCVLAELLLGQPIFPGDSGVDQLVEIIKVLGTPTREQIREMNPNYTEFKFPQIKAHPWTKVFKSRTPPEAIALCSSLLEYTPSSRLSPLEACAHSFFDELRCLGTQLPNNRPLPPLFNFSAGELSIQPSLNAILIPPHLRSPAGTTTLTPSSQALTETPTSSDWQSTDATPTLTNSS

Series 1 — read-out: enzyme activity; action: inhibitor; tested at: 0.5 µM; baseline: control
Target: Casein kinase I isoform alpha (CSNK1A1, Homo sapiens, UniProt P48729)
Sequence of UniProt P48729 (whole entry, looked up): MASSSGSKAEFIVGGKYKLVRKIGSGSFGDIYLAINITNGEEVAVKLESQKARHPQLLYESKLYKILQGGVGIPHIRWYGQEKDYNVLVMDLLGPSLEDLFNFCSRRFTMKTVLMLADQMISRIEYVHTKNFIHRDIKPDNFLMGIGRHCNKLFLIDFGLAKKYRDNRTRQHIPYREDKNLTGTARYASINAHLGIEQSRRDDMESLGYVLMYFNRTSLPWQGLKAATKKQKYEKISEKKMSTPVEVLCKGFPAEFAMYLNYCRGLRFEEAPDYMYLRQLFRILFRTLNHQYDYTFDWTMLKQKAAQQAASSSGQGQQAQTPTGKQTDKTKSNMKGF
With `Nc1ccc2ncnc(NCCc3ccc(Oc4ccccc4)cc3)c2c1` the remaining activity was 102%.
With `O=C1NC(=O)C(c2cn(CCCO)c3ncccc23)=C1c1cnccn1` the remaining activity was 67%.
`COc1ccc(OC)c2c(=S)c3ccccc3[nH]c12` has a remaining activity of 102%.
`C#Cc1cccc(Nc2ncnc3cc(OCCOC)c(OCCOC)cc23)c1` has a remaining activity of 98.6%.
With `CO[C@H]1C[C@@H]2CC[C@@H](C)[C@@](O)(O2)C(=O)C(=O)N2CCCC[C@H]2C(=O)O[C@H]([C@H](C)C[C@@H]2CC[C@@H](O)[C@H](OC)C2)CC(=O)[C@H](C)/C=C(\C)[C@@H](O)[C@@H](OC)C(=O)[C@H](C)C[C@H](C)/C=C/C=C/C=C/1C` the remaining activity was 99.3%.
The remaining activity of `CC(C)[C@H](CO)Nc1nc(Nc2cc(N)cc(Cl)c2)c2ncn(C(C)C)c2n1` is reported as 75.5%.
`Cc1nc(-c2ccccc2)c(-c2ccncc2)o1` has a remaining activity of 86.4%.
For `CCOC(=O)c1c(C)[nH]c(/C=C2\C(=O)Nc3ccccc32)c1C`, the remaining activity was 98.6%.
With `Nc1[nH]nc2nc3ccccc3nc12` the remaining activity was 101%.
For `Cc1ccc(Nc2nccc(N(C)c3ccc4c(C)n(C)nc4c3)n2)cc1S(N)(=O)=O`, the remaining activity was 100%.
`Nc1ncnc2n[nH]c(Nc3ccc(F)cc3)c12` has a remaining activity of 90.3%.
`O=C(O)c1ccc2c3c1cccc3c(=O)n1c3ccccc3nc21` gave a remaining activity of 97.6%.
For `Oc1ccc(-c2nc(-c3ccncc3)c(-c3ccc(F)cc3)[nH]2)cc1`, the remaining activity was 62.3%.
`OCC(O)CCON=C1C(c2c(O)[nH]c3ccccc23)=Nc2ccccc21` (stereo not shown) gave a remaining activity of 84.8%.
`CNC(=O)c1cc(Oc2ccc(NC(=O)Nc3ccc(Cl)c(C(F)(F)F)c3)cc2)ccn1` has a remaining activity of 97.8%.

Series 2 — method: protein binding microarray; form: double-stranded DNA, one strand shown; sample: in vitro; tested at: not given; baseline: not given; reading: higher = stronger binding
Target: Histone acetyltransferase KAT6A, winged helix 1, GST fusion (KAT6A, Homo sapiens, UniProt Q92794, residues 1-85)
Notes: 8-mer, flanks averaged, mean of 2 arrays, mostly near background
Construct (chain): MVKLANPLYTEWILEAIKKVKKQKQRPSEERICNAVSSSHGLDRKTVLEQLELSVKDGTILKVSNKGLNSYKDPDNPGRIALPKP
`ACCTGGAC` gave an E-score of -0.156.
`CAGCAAGG` gave an E-score of -0.126.
`CGAGCAGC` has an E-score of 0.0138.
With `AATATCCG` the E-score was 0.128.
For `ATCGGAGA`, the E-score was -0.0431.
`CTAATCTA` has an E-score of -0.0701.
For `CAGTTCAC`, the E-score was -0.0127.
The E-score of `AATGTCCT` is reported as -0.0764.

Series 3 — method: competition with immobilised ligand; tested at: 1 µM
SMILES: NS(=O)(=O)c1cc(NC(=O)C2(c3ccccc3Cl)CC2)ccc1Oc1cccc(Cl)c1
It gave 68% for remaining binding (PRPF4B (Homo sapiens, UniProt Q13523); cell-free assay).
For PNCK (Homo sapiens, UniProt Q6P2M8); cell-free assay: remaining binding read 100%.
It gave 100% for remaining binding (CSNK2A1 (Homo sapiens, UniProt P68400); cell-free assay).
For STK38L (Homo sapiens, UniProt Q9Y2H1); binding: remaining binding read 81%.
For MAP4K3 (Homo sapiens, UniProt Q8IVH8); cell-free assay: remaining binding read 100%.
It gave 90% for remaining binding (GSK3A (Homo sapiens, UniProt P49840); cell-free assay).
EPHA2 (Homo sapiens, UniProt P29317); cell-free assay — remaining binding: 80%.
The remaining binding was 94% (PRKACA (Homo sapiens, UniProt P17612); cell-free assay).
The remaining binding was 77% (CDKL3 (Homo sapiens, UniProt Q8IVW4); binding).
MAPK4 (Homo sapiens, UniProt P31152); cell-free assay — remaining binding: 87%.
The remaining binding was 86% (PLK3 (Homo sapiens, UniProt Q9H4B4); cell-free assay).
The remaining binding was 100% (MAPK6 (Homo sapiens, UniProt Q16659); cell-free assay).

Series 4 — method: protein-binding microarray; form: double-stranded DNA, one strand shown; sample: in vitro; tested at: 0.8 µM; notes: whole 60-bp probe, no competitor; reading: higher = stronger binding
Target: Centromere-binding protein 1, full length, N-terminal tag (CBF1, Saccharomyces cerevisiae, UniProt P17106, residues 1-351)
Sequence of UniProt P17106 (whole entry, looked up): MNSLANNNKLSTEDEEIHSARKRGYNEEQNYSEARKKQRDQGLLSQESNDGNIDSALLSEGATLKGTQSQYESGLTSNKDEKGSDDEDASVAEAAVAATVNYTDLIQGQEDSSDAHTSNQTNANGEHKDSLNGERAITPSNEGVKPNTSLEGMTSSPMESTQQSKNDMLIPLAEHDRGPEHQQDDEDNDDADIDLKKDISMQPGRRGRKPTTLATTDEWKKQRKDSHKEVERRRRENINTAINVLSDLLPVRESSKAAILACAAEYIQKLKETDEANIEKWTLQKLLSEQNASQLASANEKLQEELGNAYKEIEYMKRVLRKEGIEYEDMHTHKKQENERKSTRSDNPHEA
For `GAAGTCAAGCATTGAAACGTGCAACATGAATATTAGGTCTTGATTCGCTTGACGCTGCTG`, the fluorescence intensity was 643 a.u.
The fluorescence intensity of `GAATGGCAAAAGGATTCCGTGATCTGTGTTCCCTAGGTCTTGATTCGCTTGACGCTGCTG` is reported as 564 a.u.
The fluorescence intensity of `TGTACGAAGCTATTGCACGTCATTATAGTAGTTAGGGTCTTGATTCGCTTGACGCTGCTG` is reported as 596 a.u.
The fluorescence intensity of `GAAATGAGTCAAAACCACGTGTAATTAATAAAGTAGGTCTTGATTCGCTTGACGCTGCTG` is reported as 3770 a.u.
With `CTATTTGCAAAGTCTGTCATCAGGGCTTGATAATTCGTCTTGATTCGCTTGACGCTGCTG` the fluorescence intensity was 570 a.u.
The fluorescence intensity of `GAATAATTCAGCCGTCACGCATGAACAGAAGGATAGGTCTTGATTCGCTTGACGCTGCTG` is reported as 652 a.u.
The fluorescence intensity of `CCTAACTACTATAATCATCAGTTATAGCTTCGTACAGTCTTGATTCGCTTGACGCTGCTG` is reported as 494 a.u.
`TGTACGAAGCTATATCATGCGGATATAGTAGTTAGGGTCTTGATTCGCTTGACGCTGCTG` gave a fluorescence intensity of 571 a.u.
